{"data": "Results from different studies", "note": "Numbered parts are unrelated; each lists some results of a single study. Substitutions count along the parent as printed.", "sequence of UniProt P10398 (whole entry, looked up)": "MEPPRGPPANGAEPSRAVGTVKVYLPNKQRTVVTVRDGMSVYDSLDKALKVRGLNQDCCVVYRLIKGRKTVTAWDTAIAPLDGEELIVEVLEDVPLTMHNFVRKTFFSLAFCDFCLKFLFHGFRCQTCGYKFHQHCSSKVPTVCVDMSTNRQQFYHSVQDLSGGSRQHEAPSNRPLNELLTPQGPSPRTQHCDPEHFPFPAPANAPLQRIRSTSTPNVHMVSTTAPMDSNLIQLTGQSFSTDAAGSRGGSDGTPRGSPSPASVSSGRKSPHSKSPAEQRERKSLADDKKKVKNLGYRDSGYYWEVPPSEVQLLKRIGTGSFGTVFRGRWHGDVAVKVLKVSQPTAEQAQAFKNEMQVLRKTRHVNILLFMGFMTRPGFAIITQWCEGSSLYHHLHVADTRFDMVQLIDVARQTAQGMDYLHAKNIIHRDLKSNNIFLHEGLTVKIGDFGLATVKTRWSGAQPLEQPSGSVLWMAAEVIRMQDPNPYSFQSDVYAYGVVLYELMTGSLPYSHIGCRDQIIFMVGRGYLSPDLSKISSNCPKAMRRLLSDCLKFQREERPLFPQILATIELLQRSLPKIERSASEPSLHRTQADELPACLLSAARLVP", "sequence of UniProt Q8IYT8 (whole entry, looked up)": "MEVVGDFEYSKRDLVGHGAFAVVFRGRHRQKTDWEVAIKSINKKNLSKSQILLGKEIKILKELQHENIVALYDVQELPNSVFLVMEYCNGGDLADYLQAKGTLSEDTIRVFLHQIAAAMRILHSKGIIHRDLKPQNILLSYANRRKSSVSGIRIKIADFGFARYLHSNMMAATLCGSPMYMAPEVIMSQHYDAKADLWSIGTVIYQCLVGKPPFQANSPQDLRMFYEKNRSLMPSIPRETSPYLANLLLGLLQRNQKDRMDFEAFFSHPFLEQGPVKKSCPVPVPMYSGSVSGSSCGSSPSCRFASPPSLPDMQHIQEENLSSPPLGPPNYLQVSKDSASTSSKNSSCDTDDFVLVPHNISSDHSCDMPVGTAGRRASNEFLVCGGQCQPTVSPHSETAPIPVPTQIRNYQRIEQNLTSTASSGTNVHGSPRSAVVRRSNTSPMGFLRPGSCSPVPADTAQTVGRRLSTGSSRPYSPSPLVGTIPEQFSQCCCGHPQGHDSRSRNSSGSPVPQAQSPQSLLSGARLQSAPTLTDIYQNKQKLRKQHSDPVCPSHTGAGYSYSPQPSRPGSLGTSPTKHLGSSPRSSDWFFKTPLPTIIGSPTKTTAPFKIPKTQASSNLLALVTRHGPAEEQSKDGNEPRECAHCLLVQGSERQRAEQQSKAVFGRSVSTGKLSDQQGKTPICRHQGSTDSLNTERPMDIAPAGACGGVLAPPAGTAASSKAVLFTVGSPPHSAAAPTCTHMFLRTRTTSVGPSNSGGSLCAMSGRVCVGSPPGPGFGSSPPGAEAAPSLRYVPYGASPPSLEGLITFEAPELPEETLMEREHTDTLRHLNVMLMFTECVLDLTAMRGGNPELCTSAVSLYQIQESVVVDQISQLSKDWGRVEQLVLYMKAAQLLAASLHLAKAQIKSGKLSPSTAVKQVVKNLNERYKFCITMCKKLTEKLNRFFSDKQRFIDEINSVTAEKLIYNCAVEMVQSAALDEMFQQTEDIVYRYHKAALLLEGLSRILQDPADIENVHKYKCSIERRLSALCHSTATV", "sequence of UniProt P27361 (whole entry, looked up)": "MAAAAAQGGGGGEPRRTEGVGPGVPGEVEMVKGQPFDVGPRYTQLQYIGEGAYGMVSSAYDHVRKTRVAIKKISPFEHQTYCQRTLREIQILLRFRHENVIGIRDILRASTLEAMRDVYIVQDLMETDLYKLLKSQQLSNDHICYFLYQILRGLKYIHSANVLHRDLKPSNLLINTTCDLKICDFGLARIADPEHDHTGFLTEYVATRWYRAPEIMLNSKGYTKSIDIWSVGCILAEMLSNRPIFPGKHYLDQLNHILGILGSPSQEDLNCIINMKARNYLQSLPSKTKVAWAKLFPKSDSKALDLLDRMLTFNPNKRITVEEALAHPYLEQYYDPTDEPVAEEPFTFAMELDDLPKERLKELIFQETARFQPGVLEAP", "sequence of UniProt Q02763 (whole entry, looked up)": "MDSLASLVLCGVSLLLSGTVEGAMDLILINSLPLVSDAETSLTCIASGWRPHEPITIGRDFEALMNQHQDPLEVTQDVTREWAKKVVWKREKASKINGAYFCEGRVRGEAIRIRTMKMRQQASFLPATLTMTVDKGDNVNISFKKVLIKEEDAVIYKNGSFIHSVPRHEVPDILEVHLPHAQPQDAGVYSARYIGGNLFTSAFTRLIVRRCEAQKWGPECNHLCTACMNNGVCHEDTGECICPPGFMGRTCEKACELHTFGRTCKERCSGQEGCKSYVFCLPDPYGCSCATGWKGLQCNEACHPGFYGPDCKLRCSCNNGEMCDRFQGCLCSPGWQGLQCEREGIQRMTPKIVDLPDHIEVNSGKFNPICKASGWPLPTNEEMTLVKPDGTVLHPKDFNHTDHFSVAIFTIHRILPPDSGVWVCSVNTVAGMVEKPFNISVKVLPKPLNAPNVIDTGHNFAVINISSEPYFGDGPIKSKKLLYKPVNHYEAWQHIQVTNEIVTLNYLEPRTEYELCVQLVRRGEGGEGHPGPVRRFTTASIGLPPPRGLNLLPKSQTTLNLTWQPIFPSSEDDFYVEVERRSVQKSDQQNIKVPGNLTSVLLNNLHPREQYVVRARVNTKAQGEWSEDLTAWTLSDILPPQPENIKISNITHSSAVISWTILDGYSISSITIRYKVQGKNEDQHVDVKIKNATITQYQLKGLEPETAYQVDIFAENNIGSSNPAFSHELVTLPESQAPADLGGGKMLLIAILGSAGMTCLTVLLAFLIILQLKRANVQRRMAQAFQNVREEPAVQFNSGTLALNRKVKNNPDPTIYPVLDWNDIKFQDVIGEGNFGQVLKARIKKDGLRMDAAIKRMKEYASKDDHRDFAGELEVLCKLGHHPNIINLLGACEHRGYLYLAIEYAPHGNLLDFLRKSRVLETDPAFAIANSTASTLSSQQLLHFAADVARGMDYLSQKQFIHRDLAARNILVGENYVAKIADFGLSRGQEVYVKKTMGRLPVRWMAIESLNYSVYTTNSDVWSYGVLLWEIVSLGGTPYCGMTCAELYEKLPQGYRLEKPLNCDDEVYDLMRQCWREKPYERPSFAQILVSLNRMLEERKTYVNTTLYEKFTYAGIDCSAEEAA", "sequence of UniProt P49841 (whole entry, looked up)": "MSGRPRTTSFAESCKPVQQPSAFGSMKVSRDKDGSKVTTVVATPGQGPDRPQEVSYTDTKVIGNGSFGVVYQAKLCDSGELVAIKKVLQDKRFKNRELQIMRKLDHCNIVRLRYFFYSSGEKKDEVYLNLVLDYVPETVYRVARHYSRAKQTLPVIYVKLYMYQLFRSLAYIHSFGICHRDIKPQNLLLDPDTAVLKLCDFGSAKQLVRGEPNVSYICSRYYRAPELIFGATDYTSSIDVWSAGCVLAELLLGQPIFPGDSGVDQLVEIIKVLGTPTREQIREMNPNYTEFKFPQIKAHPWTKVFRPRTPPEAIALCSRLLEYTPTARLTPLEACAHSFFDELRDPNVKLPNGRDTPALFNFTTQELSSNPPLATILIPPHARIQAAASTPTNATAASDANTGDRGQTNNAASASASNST", "sequence of UniProt Q12866 (whole entry, looked up)": "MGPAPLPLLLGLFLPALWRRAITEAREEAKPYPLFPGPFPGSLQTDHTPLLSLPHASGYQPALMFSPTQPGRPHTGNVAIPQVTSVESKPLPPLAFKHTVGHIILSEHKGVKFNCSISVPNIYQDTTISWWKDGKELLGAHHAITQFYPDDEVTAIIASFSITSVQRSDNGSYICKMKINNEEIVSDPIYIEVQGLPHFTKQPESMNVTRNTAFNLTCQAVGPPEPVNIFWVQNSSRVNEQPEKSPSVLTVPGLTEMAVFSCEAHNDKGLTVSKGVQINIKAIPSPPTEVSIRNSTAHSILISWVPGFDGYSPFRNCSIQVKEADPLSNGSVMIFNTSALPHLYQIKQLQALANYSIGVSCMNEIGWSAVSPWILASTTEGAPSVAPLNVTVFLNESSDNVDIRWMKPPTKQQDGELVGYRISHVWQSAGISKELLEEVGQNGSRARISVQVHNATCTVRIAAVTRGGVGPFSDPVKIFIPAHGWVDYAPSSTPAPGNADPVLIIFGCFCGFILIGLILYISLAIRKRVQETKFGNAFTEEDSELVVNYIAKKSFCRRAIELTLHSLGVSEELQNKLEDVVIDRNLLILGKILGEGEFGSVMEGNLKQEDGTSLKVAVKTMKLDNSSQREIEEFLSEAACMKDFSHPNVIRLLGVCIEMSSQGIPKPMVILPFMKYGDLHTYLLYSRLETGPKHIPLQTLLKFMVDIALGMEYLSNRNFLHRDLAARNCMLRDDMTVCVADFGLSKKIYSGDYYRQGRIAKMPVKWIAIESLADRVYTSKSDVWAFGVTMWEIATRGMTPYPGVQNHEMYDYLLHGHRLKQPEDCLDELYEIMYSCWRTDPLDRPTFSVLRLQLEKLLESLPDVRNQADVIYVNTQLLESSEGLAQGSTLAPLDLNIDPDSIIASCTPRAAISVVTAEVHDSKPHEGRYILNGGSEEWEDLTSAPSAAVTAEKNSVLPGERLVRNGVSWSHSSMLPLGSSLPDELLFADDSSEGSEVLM"}
{"data": "Block 1", "target": "Alpha-2B adrenergic receptor (ADRA2B, Homo sapiens, UniProt P18089)", "observed": "binding", "technique": "radioligand binding", "tested at": "10 µM", "sequence of UniProt P18089 (whole entry, looked up)": "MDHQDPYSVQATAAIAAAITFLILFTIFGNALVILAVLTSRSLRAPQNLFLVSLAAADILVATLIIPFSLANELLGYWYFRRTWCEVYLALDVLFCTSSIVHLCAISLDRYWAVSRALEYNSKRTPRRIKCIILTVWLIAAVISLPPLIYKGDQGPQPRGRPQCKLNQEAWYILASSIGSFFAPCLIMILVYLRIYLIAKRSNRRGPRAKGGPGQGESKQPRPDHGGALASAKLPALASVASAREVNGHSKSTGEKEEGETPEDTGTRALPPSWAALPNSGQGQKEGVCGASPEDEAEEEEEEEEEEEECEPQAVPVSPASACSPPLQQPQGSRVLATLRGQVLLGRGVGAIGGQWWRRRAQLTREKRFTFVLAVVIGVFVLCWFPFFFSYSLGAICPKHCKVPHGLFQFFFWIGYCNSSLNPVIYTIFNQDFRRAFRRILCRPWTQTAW"}
{"Structure (SMILES)": "Cc1nc(N2CC[C@@H](O)C2)ncc1-c1cc(C(F)(F)F)cc2[nH]ncc12", "inhibition": "12.5%"}
{"Structure (SMILES)": "Cc1c[nH]c2nccc(Oc3c(F)cc(Nc4cc(Cl)nc(N)n4)cc3F)c12", "inhibition": "11.7%"}
{"Structure (SMILES)": "C[C@@]1(Cc2ccc(C#N)cc2)C(=O)N(c2cc(Cl)cc(Cl)c2)c2ncc(C(=O)NC3(c4nc(C5CCC5)no4)CC3)n21", "inhibition": "15%"}
{"Structure (SMILES)": "CC(=O)c1c(NS(C)(=O)=O)c2cc(-c3ccc(Cl)cc3)c(-c3ccc(Cl)cc3Cl)nc2n(C)c1=O", "inhibition": "67.2%"}
{"Structure (SMILES)": "CC1=C(C#N)[C@@H](c2ccc3[nH]nc(C)c3c2)C(C#N)=C(c2ccc(Cl)cc2)N1", "inhibition": "4.71%"}
{"Structure (SMILES)": "O=C1CCc2cc(Nc3cc(OC4CCOCC4)c([N+](=O)[O-])cc3Cl)ccc2N1", "inhibition": "-0.04%"}
{"Structure (SMILES)": "CC(C)CC(=O)N1CCc2nc(-c3ccc(Br)cc3)nc(N(C)Cc3ccccc3)c2C1", "inhibition": "29%"}
{"Structure (SMILES)": "O=C1c2ccc(Nc3ccc(F)cc3F)cc2CCc2ccc(OC[C@H](O)CO)cc21", "inhibition": "4.37%"}
{"Structure (SMILES)": "C[C@H](NC(=O)c1cnc2n1[C@](C)(Cc1ccc(C#N)cc1)C(=O)N2c1cc(Cl)c(F)c(Cl)c1)C(=O)NC1(c2ccccn2)CC1", "inhibition": "-3.79%"}
{"Structure (SMILES)": "COc1nc2ccc([C@@](O)(c3ccccc3)C3CCN(C(C)=O)CC3)cc2c(Cl)c1Cc1ccc(-n2cccn2)cc1", "inhibition": "54.6%"}
{"Structure (SMILES)": "Cc1nccc(COC(=O)N2C[C@@H]3[C@@H](CNC(=O)c4ccc5[nH]nnc5c4)[C@@H]3C2)n1", "inhibition": "1.15%"}
{"Structure (SMILES)": "CCCOc1ccc([C@H]2[C@H](C(=O)O)[C@@H](c3ccc4c(c3)OCO4)CN2CC(=O)Nc2c(CC)cccc2CC)cc1", "inhibition": "10.4%"}
{"Structure (SMILES)": "O=C(NC[C@@H]1[C@H]2CN(C(=O)OCc3cc(C(F)(F)F)cc(C(F)(F)F)c3)C[C@@H]12)c1ccc2[nH]nnc2c1", "inhibition": "25.2%"}
{"Structure (SMILES)": "COCCc1ccc(-c2c(C)nc3c(N4CCOCC4)ccnn23)cn1", "inhibition": "78.2%"}
{"Structure (SMILES)": "O=C(Nc1cnc(Oc2ccc(F)cc2)nc1)N1CCc2ncccc2[C@@H]1c1ccc(F)cc1", "inhibition": "9.66%"}
{"Structure (SMILES)": "CN([C@@H]1CCc2c(CC(=O)O)c3cc(S(C)(=O)=O)ccc3n2C1)S(=O)(=O)c1ccc(F)cc1", "inhibition": "-2.39%"}
{"Structure (SMILES)": "O=C(Nc1cccnn1)N1CCC(=Cc2cccc(Oc3ccc(C(F)(F)F)cn3)c2)CC1", "inhibition": "40%"}
{"Structure (SMILES)": "CC(C)(O)c1cncc(-c2nc3ccc(F)cc3n2C2CC2)c1", "inhibition": "76.4%"}
{"Structure (SMILES)": "COCc1nc2cnc3cc(-c4c(C)noc4C)c(OC[C@H]4CCNC4)cc3c2n1[C@H](C)c1ccccc1", "inhibition": "-13.6%"}
{"Structure (SMILES)": "O=C(O)c1cc(-c2ccc(C3CCNCC3)cc2)c2ccc(-c3ccc(C(F)(F)F)cc3)cc2c1", "inhibition": "85.4%"}
{"data": "Block 2", "Compound": "CN1CCN(c2ccc3nc(-c4c(N)c5c(F)cccc5[nH]c4=O)[nH]c3c2)CC1", "observed": "enzyme activity", "mode": "inhibitor", "tested at": "0.5 µM", "reference": "control"}
{"target": "ARAF (Homo sapiens, UniProt P10398)", "remaining activity [%]": 123}
{"target": "MAP3K5 (Homo sapiens, UniProt Q99683)", "remaining activity [%]": 98.4}
{"target": "EPHA3 (Homo sapiens, UniProt P29320)", "remaining activity [%]": 88}
{"target": "TAOK2 (Homo sapiens, UniProt Q9UL54)", "remaining activity [%]": 97.4}
{"target": "MAPK3 (Homo sapiens, UniProt P27361)", "remaining activity [%]": 99.6}
{"target": "GSK3B (Homo sapiens, UniProt P49841)", "remaining activity [%]": 98.6}
{"target": "TEK (Homo sapiens, UniProt Q02763)", "remaining activity [%]": 81.3}
{"target": "RPS6KA2 (Homo sapiens, UniProt Q15349)", "remaining activity [%]": 13.1}
{"target": "MERTK (Homo sapiens, UniProt Q12866)", "remaining activity [%]": 92}
{"target": "ULK2 (Homo sapiens, UniProt Q8IYT8)", "remaining activity [%]": 45.7}
{"target": "TBK1 (Homo sapiens, UniProt Q9UHD2)", "remaining activity [%]": 38.5}
{"target": "MAP2K2 (Homo sapiens, UniProt P36507)", "remaining activity [%]": 43}
{"data": "Block 3", "target": "CEBPA, bZIP domain (human)", "technique": "DHFR protein complementation", "medium": "yeast", "setting": "single substitutions, most at no-binding floor", "reference": "wild-type JUN-FOS pair", "direction": "higher = stronger binding", "parent": "JUN, bZIP domain (human); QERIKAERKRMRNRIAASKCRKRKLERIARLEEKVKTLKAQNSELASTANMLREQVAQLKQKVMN; partner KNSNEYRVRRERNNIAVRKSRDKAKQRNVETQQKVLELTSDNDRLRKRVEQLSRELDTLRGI"}
{"Change": "A29V", "binding fitness [natural log]": -1.51}
{"Change": "L38I", "binding fitness [natural log]": -1.48}
{"Change": "L59A", "binding fitness [natural log]": -1.45}
{"Change": "S47T", "binding fitness [natural log]": -1.46}
{"Change": "E32N", "binding fitness [natural log]": -1.5}
{"Change": "T37E", "binding fitness [natural log]": -1.24}
{"Change": "A49R", "binding fitness [natural log]": -1.41}
{"Change": "Q55G", "binding fitness [natural log]": -1.47}
{"data": "Block 4", "target": "PABPC1L2, full length, GST fusion (mouse, UniProt A0ABA7IW68)", "technique": "RNAcompete", "form": "RNA", "medium": "in vitro", "tested at": "20 nM", "setting": "7-mer, probes averaged, single round", "reference": "mean of 7-mers", "direction": "higher = stronger binding", "Construct (chain)": "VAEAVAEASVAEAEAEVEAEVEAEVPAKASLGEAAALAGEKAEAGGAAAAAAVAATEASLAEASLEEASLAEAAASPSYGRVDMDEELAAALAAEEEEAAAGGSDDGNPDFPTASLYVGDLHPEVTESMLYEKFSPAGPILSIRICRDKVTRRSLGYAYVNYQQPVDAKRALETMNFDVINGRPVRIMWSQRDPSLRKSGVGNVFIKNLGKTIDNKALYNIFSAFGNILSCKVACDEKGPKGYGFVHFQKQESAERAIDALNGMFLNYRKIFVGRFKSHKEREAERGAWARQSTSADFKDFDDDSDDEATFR"}
{"Sequence": "GCGAAUG", "7-mer Z-score": -0.0935}
{"Sequence": "GAAGCGG", "7-mer Z-score": 0.222}
{"Sequence": "GGGCCCU", "7-mer Z-score": -0.238}
{"Sequence": "CGUCGUG", "7-mer Z-score": -0.367}
{"Sequence": "GCCCACG", "7-mer Z-score": -0.246}
{"Sequence": "UUAUCCA", "7-mer Z-score": -0.26}
{"Sequence": "UCACGGU", "7-mer Z-score": -0.193}
{"Sequence": "GGGUUCC", "7-mer Z-score": -0.0935}
{"note": "Excerpt of the above (block 1):"}
{"Structure (SMILES)": "Cc1c[nH]c2nccc(Oc3c(F)cc(Nc4cc(Cl)nc(N)n4)cc3F)c12", "inhibition": "11.7%"}
{"Structure (SMILES)": "C[C@@]1(Cc2ccc(C#N)cc2)C(=O)N(c2cc(Cl)cc(Cl)c2)c2ncc(C(=O)NC3(c4nc(C5CCC5)no4)CC3)n21", "inhibition": "15%"}
{"Structure (SMILES)": "CC(=O)c1c(NS(C)(=O)=O)c2cc(-c3ccc(Cl)cc3)c(-c3ccc(Cl)cc3Cl)nc2n(C)c1=O", "inhibition": "67.2%"}
{"Structure (SMILES)": "CC1=C(C#N)[C@@H](c2ccc3[nH]nc(C)c3c2)C(C#N)=C(c2ccc(Cl)cc2)N1", "inhibition": "4.71%"}
{"Structure (SMILES)": "O=C1CCc2cc(Nc3cc(OC4CCOCC4)c([N+](=O)[O-])cc3Cl)ccc2N1", "inhibition": "-0.04%"}
